Published values from different studies.
Each numbered part is a random draw from the data of one study; scales do not carry over between parts. Changes are numbered by the printed parent chain.

Study 1 — target: CCNB1, cyclin fold, Cln2 fusion (human); method: yeast growth competition, sequencing; medium: yeast; setting: strong parent motif; reference: not given; direction: higher = stronger binding; measurement: normalised enrichment score
Starting sequence: PKN2 docking peptide (human); VSAVQKLDFSDTM; partner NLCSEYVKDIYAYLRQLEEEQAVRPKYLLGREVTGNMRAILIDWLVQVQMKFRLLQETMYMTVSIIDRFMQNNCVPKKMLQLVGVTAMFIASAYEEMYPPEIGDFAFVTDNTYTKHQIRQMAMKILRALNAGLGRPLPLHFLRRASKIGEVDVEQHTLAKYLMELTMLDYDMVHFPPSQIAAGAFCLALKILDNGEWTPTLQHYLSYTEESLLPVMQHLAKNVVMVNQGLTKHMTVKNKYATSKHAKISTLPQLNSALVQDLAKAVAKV
VSAVQKLDWSDTM [F9W]: 0.21
VSAVQKLDLSDTM [F9L]: 0.543
VSAVQKLDFSDQM [T12Q]: 1.41
VSAVQKLDFCDTM [S10C]: 1.71
VSAVQKLDFSDSM [T12S]: 2.49
VSAVQPLDFSDTM [K6P]: -0.0896
ESAVQKLDFSDTM [V1E]: 1.8

Study 2 — method: protein binding microarray; molecule type: double-stranded DNA, one strand shown; medium: in vitro; concentration: not given; reference: not given; direction: higher = stronger binding; measurement: E-score
Target: Histone acetyltransferase KAT6A, winged helix 2, GST fusion (KAT6A, Homo sapiens, UniProt Q92794, residues 85-181)
Setting: 8-mer, flanks averaged, mean of 2 arrays, mostly near background
Target sequence (chain): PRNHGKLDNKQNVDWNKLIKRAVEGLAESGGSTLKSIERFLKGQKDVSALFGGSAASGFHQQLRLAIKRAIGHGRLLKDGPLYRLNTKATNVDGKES
AGATCCCG: 0.203
ATCCACGA: 0.0642
CAGCGGAA: 0.0222
CAAAAGGA: -0.00067
ACATACCA: -0.115
ACTACGCA: 0.0173
AGAAAGTA: 0.117
GAGTTTAC: 0.0257
ACTAGAAA: -0.0328
AACCACTT: -0.21
AACAACGG: -0.111
GGACTCAA: -0.167
GCCCCAAC: 0.0722
CGATCTAA: 0.0641
CGGCTAGC: 0.0991
CGTGGGGC: 0.171
CACTCCGC: 0.014
GCGCCGCC: 0.299
CGTCGCGC: 0.0895
ACCGTCCA: 0.0217

Study 3 — method: competition protein-binding microarray; molecule type: double-stranded DNA, one strand shown; medium: in vitro; concentration: 2 µM; together with: Pho4 competitor, 0.05 µM; direction: higher = stronger binding; measurement: fluorescence intensity; constant ends, left off below: … GTCTTGATTCGCTTGACGCTGCTG
Target: Centromere-binding protein 1, full length, His-tagged (CBF1, Saccharomyces cerevisiae, UniProt P17106, residues 1-351)
Sequence of UniProt P17106 (whole entry, looked up): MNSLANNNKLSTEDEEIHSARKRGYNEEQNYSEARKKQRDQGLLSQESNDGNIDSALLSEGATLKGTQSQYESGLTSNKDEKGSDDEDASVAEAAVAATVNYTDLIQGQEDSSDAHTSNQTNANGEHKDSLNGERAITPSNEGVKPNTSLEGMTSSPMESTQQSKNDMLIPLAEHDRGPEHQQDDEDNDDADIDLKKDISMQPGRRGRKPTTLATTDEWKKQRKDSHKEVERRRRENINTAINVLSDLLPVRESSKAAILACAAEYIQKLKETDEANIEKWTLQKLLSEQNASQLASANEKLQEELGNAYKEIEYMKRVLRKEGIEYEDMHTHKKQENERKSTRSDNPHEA
Setting: whole 60-bp probe, lowest competitor level
TAATAACAATCTACCCACGTGGTGAAGCAACACCTA: 1190 a.u.
GCCACCATGGATCCACACGTATTTGGATCATCTTCG: 66.6 a.u.
CTAACGAAGGTTTTTCACGTGCTATACAAGCCAAGT: 1060 a.u.
GTAGCAGAGGTGGTTCCCGTGGAGGTTCCAGAGGTG: 67.4 a.u.
TATTTAGATGTCGATGACGTGTGGAGCGTAAAAATT: 87.8 a.u.
GGTAGTAGAACCCGTCACGTCATTACTTGATGTTGC: 103 a.u.
TTCACTTCGGGTTTTGCCGTGCCGAACTTTTCAGAT: 67.6 a.u.
CGCTCTGTTCCTTCTCCCGTGCTGTCGCAAGCGAAC: 81.7 a.u.
TGAAAGAAGAACCATCACGTGGAACATGCTTTTTAG: 1650 a.u.
CTTCTGTAAATTTGCCTCGTGGGTGGACGCGCCCCG: 96.6 a.u.
CTTCTGTAAATTTTTCACGTGCAATGACGCGCCCCG: 953 a.u.
CGGGGTTAAGTTTGTGACGTGGGTGGCTTGCAGCAG: 93.6 a.u.
CGTCCTAGTGATTTTCACGTGAGATCCATGAGGAAG: 1000 a.u.
CTTTCCCGATCTTGCGGTGTGGGTGTAGCACATTTG: 62.9 a.u.
TTCCTTGGCGCTATTTTCGTGCATCCCGTAATTGCC: 83 a.u.
AAAGCGGTAATTTGATGAGTGGGTGCAGATATCTAT: 75.9 a.u.
TGACCTCTAGATCGGCACGTCGACCATCAGTGGGAA: 70.8 a.u.
AGTTGTTAGATAAAGCACGTGTAGCATTGTACAATT: 1810 a.u.
TAAGGTATTACGAGACACATGGAATACTAAGAATAT: 128 a.u.
GTCTATAAATGCTGGCACGTGCGATCATCGCGGCGG: 2210 a.u.
TCTGTTATTGCTGATCGCGTGGCCGTTAAATTGGTT: 231 a.u.
CTAACGAAGGTTTGTCACGGCACTTACAAGCCAAGT: 76.4 a.u.
CGGGGTTAAGTTTGGTAGGTGGGTGGCTTGCAGCAG: 69.5 a.u.
CATACCCAACCTTGTCACCTTACTTAAGATATTTGT: 88.5 a.u.

Other studies, line by line
PhoQ, residues 284 288 289 292 302 303 NSMLDC — fold induction (PhoP, residues 12 14 15 18 19 NYFTV (Escherichia coli, UniProt P23836); Sort-seq, measured: YFP reporter; E. coli; PhoQ-PhoP variant library, together with: 10 µM Mg2+; reference: high Mg2+ state, higher = stronger signaling): 11

Excerpt of the above (study 2):
CGATCTAA: 0.0641
CGGCTAGC: 0.0991
CGTGGGGC: 0.171
CACTCCGC: 0.014
GCGCCGCC: 0.299
CGTCGCGC: 0.0895
ACCGTCCA: 0.0217
